# Experimental data gathered from unrelated publications.
# A part holds a random share of what one study measured. Substitutions count along the parent as printed.
# Chain of UniProt P06213 (whole entry, looked up): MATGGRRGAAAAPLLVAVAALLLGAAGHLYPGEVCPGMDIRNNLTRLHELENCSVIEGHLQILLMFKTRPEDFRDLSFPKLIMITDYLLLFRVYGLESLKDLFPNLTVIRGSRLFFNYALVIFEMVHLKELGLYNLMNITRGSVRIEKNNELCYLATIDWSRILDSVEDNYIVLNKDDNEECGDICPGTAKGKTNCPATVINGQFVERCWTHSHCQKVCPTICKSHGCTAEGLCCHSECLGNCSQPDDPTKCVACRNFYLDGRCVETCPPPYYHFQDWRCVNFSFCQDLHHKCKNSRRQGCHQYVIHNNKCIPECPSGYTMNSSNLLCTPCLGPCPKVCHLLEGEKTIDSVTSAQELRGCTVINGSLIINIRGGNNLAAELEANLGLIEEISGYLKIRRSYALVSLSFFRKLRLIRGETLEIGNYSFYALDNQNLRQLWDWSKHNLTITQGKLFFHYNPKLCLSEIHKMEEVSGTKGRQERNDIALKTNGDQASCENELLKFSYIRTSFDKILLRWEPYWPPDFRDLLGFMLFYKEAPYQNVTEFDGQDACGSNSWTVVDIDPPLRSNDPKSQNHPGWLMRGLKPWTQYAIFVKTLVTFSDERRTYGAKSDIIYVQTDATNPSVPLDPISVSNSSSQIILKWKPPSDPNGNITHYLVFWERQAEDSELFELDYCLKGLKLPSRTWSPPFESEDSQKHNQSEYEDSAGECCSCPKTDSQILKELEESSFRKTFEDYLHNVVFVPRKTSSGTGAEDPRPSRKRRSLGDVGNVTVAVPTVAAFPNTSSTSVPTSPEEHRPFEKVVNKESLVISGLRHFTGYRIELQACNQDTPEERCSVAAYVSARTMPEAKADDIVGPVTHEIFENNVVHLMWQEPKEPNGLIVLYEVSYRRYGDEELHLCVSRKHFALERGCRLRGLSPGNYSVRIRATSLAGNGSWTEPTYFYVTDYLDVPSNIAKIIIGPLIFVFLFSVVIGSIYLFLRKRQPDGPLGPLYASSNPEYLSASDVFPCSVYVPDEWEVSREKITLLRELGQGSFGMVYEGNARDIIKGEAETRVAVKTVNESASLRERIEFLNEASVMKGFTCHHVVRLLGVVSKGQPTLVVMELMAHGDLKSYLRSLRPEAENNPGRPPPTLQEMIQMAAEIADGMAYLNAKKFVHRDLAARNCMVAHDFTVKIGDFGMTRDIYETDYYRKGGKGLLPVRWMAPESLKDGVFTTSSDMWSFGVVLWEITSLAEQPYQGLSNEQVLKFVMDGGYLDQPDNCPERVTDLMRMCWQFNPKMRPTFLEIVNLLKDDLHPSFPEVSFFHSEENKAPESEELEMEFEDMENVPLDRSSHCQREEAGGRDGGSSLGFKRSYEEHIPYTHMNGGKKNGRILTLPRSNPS
# Chain of UniProt P46734 (whole entry, looked up): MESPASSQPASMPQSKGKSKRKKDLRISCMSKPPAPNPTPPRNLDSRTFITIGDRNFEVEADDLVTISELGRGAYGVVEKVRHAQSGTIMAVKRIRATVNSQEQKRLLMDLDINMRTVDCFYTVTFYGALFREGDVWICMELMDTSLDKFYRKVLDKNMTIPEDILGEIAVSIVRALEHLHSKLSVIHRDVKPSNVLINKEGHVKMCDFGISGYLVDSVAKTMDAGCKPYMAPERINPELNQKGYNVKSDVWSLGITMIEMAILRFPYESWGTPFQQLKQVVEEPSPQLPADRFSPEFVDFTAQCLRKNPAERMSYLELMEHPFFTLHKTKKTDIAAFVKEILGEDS
# Chain of UniProt P54764 (whole entry, looked up): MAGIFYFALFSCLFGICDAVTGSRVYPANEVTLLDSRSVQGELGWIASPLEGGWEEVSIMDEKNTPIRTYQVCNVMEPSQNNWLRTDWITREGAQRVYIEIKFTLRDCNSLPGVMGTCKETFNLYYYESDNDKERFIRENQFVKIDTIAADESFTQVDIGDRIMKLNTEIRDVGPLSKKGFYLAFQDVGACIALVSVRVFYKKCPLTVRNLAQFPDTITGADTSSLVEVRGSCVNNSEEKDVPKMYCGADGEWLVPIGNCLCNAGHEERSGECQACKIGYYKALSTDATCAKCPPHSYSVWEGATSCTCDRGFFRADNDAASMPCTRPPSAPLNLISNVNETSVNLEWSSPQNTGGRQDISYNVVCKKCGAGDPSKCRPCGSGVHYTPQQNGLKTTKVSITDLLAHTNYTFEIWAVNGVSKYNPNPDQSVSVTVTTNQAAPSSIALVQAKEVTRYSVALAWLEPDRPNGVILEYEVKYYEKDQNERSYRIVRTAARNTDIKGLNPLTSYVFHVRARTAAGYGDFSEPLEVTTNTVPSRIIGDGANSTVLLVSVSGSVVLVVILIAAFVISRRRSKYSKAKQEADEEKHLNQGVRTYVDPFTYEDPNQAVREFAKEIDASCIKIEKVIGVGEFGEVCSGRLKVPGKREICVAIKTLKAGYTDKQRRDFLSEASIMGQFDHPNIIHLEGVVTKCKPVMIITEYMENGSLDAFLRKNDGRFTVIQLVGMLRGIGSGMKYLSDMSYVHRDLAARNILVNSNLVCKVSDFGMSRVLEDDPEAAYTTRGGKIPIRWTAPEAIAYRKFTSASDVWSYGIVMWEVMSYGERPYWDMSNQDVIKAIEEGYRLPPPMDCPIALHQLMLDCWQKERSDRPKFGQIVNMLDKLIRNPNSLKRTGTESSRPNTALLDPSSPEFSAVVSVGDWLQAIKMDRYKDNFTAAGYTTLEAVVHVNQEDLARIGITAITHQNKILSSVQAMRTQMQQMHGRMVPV
# Chain of UniProt P52333 (whole entry, looked up): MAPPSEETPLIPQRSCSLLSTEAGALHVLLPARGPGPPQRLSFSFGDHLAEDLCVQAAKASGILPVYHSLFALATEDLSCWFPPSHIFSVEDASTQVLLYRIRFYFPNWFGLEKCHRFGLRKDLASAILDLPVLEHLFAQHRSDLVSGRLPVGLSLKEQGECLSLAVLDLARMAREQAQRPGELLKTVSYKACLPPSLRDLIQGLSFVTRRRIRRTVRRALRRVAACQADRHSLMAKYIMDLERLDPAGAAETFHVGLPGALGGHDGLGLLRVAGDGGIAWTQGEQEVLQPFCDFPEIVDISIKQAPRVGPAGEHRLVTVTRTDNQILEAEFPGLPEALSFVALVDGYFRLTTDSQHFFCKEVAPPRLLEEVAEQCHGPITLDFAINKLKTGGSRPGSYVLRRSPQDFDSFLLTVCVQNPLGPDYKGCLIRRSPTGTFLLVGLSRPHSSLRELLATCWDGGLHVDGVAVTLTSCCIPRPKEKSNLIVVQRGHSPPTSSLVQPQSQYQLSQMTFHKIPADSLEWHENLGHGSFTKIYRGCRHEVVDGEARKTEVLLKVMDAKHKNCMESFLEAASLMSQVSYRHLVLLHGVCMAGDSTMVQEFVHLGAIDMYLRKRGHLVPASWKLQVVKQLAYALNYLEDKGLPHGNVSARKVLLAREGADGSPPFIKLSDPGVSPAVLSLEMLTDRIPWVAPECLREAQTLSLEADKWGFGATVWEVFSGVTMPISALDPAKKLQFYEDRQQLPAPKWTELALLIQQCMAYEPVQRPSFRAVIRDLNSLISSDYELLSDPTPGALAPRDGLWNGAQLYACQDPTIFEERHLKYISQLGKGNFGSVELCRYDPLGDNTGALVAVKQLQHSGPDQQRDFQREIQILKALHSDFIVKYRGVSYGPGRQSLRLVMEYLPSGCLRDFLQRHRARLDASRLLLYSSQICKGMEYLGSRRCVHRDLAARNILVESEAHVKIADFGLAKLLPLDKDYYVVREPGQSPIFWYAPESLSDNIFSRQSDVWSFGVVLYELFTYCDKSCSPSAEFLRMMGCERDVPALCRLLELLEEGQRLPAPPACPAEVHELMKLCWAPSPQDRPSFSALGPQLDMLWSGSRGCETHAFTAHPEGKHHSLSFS
# Chain of UniProt P11802 (whole entry, looked up): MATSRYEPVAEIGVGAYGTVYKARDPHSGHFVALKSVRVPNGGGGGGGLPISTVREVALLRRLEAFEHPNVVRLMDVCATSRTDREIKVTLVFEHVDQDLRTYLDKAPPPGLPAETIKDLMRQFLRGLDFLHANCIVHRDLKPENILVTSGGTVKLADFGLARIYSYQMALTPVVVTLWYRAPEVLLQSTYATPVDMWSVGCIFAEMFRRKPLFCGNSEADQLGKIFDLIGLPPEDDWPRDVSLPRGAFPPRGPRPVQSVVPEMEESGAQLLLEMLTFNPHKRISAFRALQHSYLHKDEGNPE

# Study 1 — target: CCNA2, cyclin fold, Cln2 fusion (human); method: yeast growth competition, sequencing; sample: yeast; notes: strong parent motif; baseline: not given; direction: higher = stronger binding
# Parent: viral docking peptide; TSVRRALFTGGSD; partner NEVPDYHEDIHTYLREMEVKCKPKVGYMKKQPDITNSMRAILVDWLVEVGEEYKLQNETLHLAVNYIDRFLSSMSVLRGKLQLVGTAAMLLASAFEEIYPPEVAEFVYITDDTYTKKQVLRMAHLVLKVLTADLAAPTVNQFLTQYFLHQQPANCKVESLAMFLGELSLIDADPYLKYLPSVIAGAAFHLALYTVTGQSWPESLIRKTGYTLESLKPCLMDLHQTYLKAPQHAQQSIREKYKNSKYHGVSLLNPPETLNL
Substitution,normalised enrichment score
G11E,6.04
R4T,1.36
S2N,6.35
L7M,1.21
L7A,0.187
F8C,0.348
F8A,0.603
T1A,6.78

# Study 2
# Compound: CNC(=O)c1ccc(-c2cnn3ccc(C(=O)N(C)c4ccc(Cl)c(C(=O)OC)c4)cc23)cc1
target,read-out,mode,IC50
"Cyclin-dependent kinase 4 (CDK4, Homo sapiens, UniProt P11802)",enzyme activity,inhibitor,> 30 µM
"Insulin receptor (INSR, Homo sapiens, UniProt P06213)",enzyme activity,inhibitor,> 30 µM
"Tyrosine-protein kinase JAK3 (JAK3, Homo sapiens, UniProt P52333)",enzyme activity,inhibitor,> 30 µM
"Hepatocyte growth factor receptor (MET, Homo sapiens, UniProt P08581)",enzyme activity,inhibitor,> 30 µM
"Progesterone receptor (PGR, Homo sapiens, UniProt P06401)",cell-free assay,,> 30 µM
"Dual specificity mitogen-activated protein kinase kinase 3 (MAP2K3, Homo sapiens, UniProt P46734)",enzyme activity,inhibitor,> 30 µM
"Mitogen-activated protein kinase 1 (MAPK1, Homo sapiens, UniProt P28482)",enzyme activity,inhibitor,> 30 µM
"Ephrin type-A receptor 4 (EPHA4, Homo sapiens, UniProt P54764)",enzyme activity,inhibitor,> 30 µM
"Epidermal growth factor receptor (EGFR, Homo sapiens, UniProt P00533)",enzyme activity,inhibitor,> 30 µM

# Study 3 — read-out: binding; method: phage display NGS; form: peptide; tested at: concentration not given; baseline: input library
# Target: UDP-N-acetylglucosamine--peptide N-acetylglucosaminyltransferase 110 kDa subunit (OGT, Homo sapiens, UniProt O15294)
# Residues (O15294 1-1046): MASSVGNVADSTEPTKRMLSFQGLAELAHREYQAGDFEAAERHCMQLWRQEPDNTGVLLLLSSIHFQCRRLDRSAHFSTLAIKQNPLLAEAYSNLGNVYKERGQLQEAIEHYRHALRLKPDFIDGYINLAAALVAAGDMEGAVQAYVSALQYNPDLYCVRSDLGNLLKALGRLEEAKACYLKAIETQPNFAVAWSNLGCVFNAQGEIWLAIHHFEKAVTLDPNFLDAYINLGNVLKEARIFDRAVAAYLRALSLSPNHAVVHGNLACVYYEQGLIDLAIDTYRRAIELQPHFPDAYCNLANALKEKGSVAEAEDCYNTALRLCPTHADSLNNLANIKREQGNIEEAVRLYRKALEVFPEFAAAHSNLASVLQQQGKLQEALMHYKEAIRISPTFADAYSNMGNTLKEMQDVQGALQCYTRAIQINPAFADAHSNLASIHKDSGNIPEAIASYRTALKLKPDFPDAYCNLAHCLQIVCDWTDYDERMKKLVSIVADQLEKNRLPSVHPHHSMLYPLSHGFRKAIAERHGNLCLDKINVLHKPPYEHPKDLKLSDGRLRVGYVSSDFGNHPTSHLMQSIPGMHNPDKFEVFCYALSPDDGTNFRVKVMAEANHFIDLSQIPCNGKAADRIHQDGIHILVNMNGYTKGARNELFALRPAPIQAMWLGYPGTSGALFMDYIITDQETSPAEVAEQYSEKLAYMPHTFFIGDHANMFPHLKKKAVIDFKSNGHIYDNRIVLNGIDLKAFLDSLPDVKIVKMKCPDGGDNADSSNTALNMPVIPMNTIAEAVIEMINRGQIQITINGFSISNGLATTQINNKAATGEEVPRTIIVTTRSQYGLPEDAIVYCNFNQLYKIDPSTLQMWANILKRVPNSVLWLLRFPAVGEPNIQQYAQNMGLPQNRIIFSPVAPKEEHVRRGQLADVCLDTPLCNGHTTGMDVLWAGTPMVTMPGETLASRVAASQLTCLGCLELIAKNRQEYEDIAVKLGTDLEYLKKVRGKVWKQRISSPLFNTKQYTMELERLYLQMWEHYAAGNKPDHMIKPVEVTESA
Sequence,enrichment fold change
SDRTPYTPRYQISY,2.67
WMQHATHDTHNIILV,9.15
HTPRVDYRFHATHHH,6.35
HWQDHHFVSDNTYFR,3.94
HGQQMKNPHHHHPMW,13.2
GLWPHHDHTHPSTEA,12.5
QWPVIGWHTHATYIH,2.71
NLYRPQYQINFFDTI,2.79

# Mixed results
SMILES,target,read-out,method,tested at,endpoint,value
Cn1cncc1[C@](O)(COc1ccc(C#N)cc1-c1ccc(OC(F)(F)F)cc1)c1ccc(C#N)cc1,"Serine/threonine-protein kinase N1 (PKN1, Homo sapiens, UniProt Q16512)",cell-free assay,competition with immobilised ligand,1 µM,remaining binding,100%

# Excerpt of the above (study 3):
Sequence,enrichment fold change
HTPRVDYRFHATHHH,6.35
HWQDHHFVSDNTYFR,3.94
HGQQMKNPHHHHPMW,13.2
